Results pooled from the literature.
Parts stem from different laboratories: compare values within a part only.
UniProt Q9P289, sequence (whole entry, looked up): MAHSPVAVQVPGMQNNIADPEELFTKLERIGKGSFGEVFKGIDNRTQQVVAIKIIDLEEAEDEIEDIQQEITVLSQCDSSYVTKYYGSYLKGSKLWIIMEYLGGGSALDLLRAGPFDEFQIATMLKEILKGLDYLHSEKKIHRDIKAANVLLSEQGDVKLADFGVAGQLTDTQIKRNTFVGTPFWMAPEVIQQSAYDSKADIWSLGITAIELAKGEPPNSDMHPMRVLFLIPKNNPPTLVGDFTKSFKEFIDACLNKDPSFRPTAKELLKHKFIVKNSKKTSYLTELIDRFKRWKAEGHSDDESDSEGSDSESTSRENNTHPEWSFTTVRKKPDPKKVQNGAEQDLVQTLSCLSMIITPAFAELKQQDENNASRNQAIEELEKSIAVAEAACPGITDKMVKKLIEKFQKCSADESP
UniProt Q9NRH2, sequence (whole entry, looked up): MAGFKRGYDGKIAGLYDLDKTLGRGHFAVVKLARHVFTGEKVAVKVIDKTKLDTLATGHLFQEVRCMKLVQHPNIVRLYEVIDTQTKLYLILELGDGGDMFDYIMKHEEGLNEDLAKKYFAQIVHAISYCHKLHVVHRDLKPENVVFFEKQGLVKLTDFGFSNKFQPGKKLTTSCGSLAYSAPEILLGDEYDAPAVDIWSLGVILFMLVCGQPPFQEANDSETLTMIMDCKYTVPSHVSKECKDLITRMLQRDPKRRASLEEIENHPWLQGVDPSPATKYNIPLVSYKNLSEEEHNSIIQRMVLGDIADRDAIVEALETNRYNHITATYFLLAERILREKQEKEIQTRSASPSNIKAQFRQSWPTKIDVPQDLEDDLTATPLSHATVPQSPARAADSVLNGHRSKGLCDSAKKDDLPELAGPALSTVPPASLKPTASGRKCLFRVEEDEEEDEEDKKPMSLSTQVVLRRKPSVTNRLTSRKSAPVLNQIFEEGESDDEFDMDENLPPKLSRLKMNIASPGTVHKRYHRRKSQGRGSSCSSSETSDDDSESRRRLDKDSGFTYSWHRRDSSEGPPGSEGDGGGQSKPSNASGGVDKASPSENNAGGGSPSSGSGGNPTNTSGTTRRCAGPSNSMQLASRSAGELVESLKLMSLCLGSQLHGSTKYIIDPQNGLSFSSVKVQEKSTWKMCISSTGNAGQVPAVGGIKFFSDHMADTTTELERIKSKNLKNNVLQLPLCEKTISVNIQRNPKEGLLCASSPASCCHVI
UniProt P29322, sequence (whole entry, looked up): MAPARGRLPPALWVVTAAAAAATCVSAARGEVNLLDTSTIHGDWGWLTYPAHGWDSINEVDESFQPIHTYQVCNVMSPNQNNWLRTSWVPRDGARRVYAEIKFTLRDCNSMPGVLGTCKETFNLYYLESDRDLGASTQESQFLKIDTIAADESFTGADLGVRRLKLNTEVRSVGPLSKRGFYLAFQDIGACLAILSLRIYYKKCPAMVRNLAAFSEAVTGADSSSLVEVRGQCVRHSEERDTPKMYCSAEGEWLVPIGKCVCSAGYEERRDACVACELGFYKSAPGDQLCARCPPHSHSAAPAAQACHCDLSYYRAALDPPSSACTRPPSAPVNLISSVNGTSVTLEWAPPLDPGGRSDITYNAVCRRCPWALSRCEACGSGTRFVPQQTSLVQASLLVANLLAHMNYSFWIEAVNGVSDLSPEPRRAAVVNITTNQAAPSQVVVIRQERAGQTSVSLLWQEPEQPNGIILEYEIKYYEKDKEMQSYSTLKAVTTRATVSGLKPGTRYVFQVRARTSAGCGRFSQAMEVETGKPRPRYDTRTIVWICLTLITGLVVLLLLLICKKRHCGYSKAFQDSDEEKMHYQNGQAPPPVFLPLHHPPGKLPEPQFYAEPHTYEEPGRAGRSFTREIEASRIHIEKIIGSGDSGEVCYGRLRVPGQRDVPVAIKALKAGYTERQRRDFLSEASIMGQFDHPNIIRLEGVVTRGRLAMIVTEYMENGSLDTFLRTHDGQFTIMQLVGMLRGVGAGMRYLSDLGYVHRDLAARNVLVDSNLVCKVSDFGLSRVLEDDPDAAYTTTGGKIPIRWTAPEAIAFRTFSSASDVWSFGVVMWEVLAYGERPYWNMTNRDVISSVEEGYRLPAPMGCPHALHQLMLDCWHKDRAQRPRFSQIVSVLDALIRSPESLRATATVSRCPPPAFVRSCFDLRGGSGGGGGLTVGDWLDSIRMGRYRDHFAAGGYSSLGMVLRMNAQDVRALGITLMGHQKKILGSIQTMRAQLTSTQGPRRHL
UniProt Q9UK32, sequence (whole entry, looked up): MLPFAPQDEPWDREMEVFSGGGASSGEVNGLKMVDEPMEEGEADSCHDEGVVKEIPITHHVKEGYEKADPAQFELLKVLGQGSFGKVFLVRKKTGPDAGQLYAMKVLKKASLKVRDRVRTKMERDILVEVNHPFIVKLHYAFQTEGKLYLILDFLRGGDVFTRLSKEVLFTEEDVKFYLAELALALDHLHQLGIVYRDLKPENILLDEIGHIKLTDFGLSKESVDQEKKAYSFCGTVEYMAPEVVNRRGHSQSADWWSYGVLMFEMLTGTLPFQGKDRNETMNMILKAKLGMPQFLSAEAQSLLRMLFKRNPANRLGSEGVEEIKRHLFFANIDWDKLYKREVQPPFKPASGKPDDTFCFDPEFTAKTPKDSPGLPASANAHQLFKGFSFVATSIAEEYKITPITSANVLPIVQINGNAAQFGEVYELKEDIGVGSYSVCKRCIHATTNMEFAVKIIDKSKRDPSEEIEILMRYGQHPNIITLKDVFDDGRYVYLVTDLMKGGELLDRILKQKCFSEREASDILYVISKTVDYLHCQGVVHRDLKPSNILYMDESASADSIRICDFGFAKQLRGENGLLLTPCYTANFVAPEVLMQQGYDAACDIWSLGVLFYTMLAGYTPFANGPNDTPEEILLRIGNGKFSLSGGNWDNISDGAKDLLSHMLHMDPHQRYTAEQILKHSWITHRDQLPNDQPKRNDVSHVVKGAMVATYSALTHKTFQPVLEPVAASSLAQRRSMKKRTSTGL
UniProt Q13163, sequence (whole entry, looked up): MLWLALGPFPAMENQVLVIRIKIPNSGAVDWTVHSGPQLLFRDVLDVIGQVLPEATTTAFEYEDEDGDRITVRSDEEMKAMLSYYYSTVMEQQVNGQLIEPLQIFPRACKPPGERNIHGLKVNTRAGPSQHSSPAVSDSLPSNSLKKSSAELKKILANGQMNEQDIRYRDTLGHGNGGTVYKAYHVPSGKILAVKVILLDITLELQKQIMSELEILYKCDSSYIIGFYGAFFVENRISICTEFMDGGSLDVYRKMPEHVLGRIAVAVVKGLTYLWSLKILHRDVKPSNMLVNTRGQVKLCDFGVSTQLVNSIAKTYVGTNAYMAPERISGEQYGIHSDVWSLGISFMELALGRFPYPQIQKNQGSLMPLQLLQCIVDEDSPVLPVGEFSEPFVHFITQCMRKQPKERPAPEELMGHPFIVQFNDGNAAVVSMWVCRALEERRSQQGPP
UniProt Q6PHR2, sequence (whole entry, looked up): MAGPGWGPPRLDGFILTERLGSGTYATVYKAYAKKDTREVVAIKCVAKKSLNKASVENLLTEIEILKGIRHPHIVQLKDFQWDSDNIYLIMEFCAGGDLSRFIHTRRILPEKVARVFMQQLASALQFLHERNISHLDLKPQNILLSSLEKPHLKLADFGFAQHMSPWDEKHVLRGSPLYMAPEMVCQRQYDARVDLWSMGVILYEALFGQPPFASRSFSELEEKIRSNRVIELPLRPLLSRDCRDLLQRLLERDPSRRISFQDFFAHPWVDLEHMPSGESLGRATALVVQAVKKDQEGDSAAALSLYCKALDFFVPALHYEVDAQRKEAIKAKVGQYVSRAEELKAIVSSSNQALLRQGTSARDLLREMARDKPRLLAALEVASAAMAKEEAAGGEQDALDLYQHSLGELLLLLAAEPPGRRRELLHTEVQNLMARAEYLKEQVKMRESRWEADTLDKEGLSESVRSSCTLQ

Sample 1
Target: Hepatocyte nuclear factor 3-alpha (Foxa1, Mus musculus, UniProt P35582, residues 1-468, full length assumed)
UniProt P35582, sequence (whole entry, looked up): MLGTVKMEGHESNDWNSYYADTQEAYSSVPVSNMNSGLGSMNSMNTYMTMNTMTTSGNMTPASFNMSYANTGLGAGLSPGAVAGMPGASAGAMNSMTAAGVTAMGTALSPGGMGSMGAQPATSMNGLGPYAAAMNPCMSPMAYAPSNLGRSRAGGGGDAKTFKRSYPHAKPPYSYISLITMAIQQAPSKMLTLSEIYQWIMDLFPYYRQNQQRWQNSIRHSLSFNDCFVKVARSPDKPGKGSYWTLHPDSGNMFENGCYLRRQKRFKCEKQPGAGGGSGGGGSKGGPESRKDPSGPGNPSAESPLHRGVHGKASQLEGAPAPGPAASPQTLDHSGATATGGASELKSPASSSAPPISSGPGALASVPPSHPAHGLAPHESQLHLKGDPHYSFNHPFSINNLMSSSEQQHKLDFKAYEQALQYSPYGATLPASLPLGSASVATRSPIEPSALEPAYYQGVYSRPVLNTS
Technique: EMSA with sequencing
Form: double-stranded DNA, one strand shown
Medium: in vitro
Concentration: 10 and 20 nM
Setting: whole designed probe, mean of two concentrations, ends assumed
Relative to: negative control set to 0
Direction: higher = stronger binding
Measurement: normalised bound fraction
Shared flanks, not repeated: GTGAGCGGTGCCCATTGATGGGGAAC … TTTCACTGGGATCGTGGGGAC
CATTAGAGTCAAAGTTGTTAAGGGGAGCTAGTCATAGCTACCACGTGGCCAGGCATGTGGAACCAGACACATGAATCATCACAGGCACATAAAGTAAATAGATGAATAATGCTGACAACCTAGTTCATAGTGACACACTACTTGAGATATATAGAATAACATTATTACCCAGTAAGTATGTGAACATTCCGAT: 0.426 ratio
ATCTTCCCCCTCTTCCTTGCCCCACCAGCTCACCTTCCCGGGTTGTTTACTTTGAGGAAAATAAATAAAGCCGGCATTCGTTAACCCTCTTCTGGCGCAAACTGCTGTTTACTTTGGATGAATCATGGTCCTTTGGCGACGCCAGGCTCCGGGAGAGCAAAGCACCGTGTCAGGGCCATGATCCGGGGTGGCC: 0.445 ratio
TTATGAGCCTTCCCATGTTATGGCTACATAGCTGTGATTATGTAATAAGTGGAGTTACGCTCCTGCGCTCCAAACTCGCTGAGTGTCACAGGATGTTTACCTTGGCCTATGCCTGCCTGGCTGCAGTGCAGGCATATTCCTTACAAATAAACATTTCCTGAGAAACACCTACATGCTGGGCACTCTATTAGGC: 0.266 ratio
AGGTGAAGTCGGCACCCTTGTCTTTGAGCTCACACAGGTGGCTGAGCTAAATAAGTGCTGAAAGGAGCTGGGTGCACTCTCCTGAGTCACCTTAGATGACTCTGGAAGCACTGTAAACTTGGCATCAGAAGGAGATTATAAAGTGCTTTTGTTCCTAAGCTTTATAAAGTGTGTGTGTATGCATGTGGGTTTC: -0.0392 ratio
ATCTTCCCCCTCTTCCTTGCCCCACCAGCTCACCTTCCCGGGTTATTTGCACAAAGGAAAATAAATAAAGCCGGCATTCGTTAACCCTCTTCACGCGCATACTGCTGTTTGCTCTGCATCTAACATGGTCCTTACGCGAGGCGTGGCTCCGGGAGAGCAAAGCACCGTGTCAGGCGCATGATCCGGGGTGGCC: 0.382 ratio

Sample 2
Target: Beta-1 adrenergic receptor (ADRB1, Homo sapiens, UniProt P08588)
UniProt P08588, sequence (whole entry, looked up): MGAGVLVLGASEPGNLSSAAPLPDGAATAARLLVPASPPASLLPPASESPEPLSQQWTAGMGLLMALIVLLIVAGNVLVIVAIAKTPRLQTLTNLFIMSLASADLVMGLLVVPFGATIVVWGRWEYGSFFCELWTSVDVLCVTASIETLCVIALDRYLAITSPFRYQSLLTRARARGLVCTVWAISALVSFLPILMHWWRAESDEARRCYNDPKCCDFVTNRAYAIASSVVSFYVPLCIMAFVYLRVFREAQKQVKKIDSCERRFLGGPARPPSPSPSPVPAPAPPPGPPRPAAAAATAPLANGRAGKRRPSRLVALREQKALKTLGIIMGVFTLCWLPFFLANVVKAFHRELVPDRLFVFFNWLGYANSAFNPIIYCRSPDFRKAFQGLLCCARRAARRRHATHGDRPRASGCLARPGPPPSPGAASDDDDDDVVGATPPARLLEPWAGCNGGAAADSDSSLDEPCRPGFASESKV
Action: antagonist
Measurement: IC50
COc1ccccc1C1CNC(=O)c2nc(CCN3CCC(C)CC3)[nH]c2C1 (centres unmarked): ≥ 100 µM
Cc1noc2c(-c3cccc(CO)c3)cc(-c3cccc(C(F)(F)F)c3)nc12: ≥ 100 µM
Cc1cc(-c2nccc3c(=O)cc(N(C)c4ccccc4)oc23)ccn1: ≥ 100 µM
CC1(C)CC(=O)c2cc(C(=O)Nc3ccccc3)c(O)nc2C1: ≥ 100 µM

Sample 3
Organism: Sarcocystis neurona
Read-out: parasite growth
Concentration: concentration not given
Setting: second screen
Relative to: untreated
Measurement: log2 fold change
CN(Cc1cnc2nc(N)nc(N)c2n1)c1ccc(C(=O)N[C@@H](CCC(=O)O)C(=O)O)cc1.O: 0.35
CC(N/C(=N\C#N)Nc1ccncc1)C(C)(C)C.O (centres unmarked): 0.15
CCC(C)(C)N=C(NC#N)Nc1cccnc1: 0.24

Sample 4
SMILES: CCCOc1ccc([C@@H]2[C@@H](C(=O)O)[C@H](c3ccc4c(c3)OCO4)CN2CC(=O)Nc2c(CC)cccc2CC)cc1
Read-out: cell-free assay
Technique: competition with immobilised ligand
Concentration: 1 µM
Measurement: remaining binding
EGFR (Homo sapiens, UniProt P00533, T790M): 93%
EGFR (Homo sapiens, UniProt P00533, A750P/del747-749): 78%
AKT3 (Homo sapiens, UniProt Q9Y243): 100%
Ribosomal protein S6 kinase alpha-6, N-terminal kinase domain (RPS6KA6, Homo sapiens, UniProt Q9UK32): 91%
RPS6KB1 (Homo sapiens, UniProt P23443): 79%
Ribosomal protein S6 kinase alpha-3, N-terminal kinase domain (RPS6KA3, Homo sapiens, UniProt P51812): 95%
MAP2K5 (Homo sapiens, UniProt Q13163): 100%
TAOK3 (Homo sapiens, UniProt Q9H2K8): 100%
STK26 (Homo sapiens, UniProt Q9P289): 81%
SNRK (Homo sapiens, UniProt Q9NRH2): 87%
EPHA8 (Homo sapiens, UniProt P29322): 97%
ULK3 (Homo sapiens, UniProt Q6PHR2): 83%
CDK18 (Homo sapiens, UniProt Q07002): 100%
FLT3 (Homo sapiens, UniProt P36888, D835V): 62%

Sample 5
Species: human
Medium: microsomes or S9
Concentration: 2 µM
Time: 0.5 h
Measurement: remaining compound
COc1ccc(C(C)Nc2cncc(-c3nncn3C)c2)cc1F (centres unmarked): > 99.9%
NC(=O)c1cccc2cc(CN3CCN(c4ccccc4Cl)CC3)oc12: 79%
CC1(C)CCN(C(=O)c2cc(C#N)cs2)c2cc(Br)ccc21: 59.3%

For quick reference, copied from above (sample 1):
AGGTGAAGTCGGCACCCTTGTCTTTGAGCTCACACAGGTGGCTGAGCTAAATAAGTGCTGAAAGGAGCTGGGTGCACTCTCCTGAGTCACCTTAGATGACTCTGGAAGCACTGTAAACTTGGCATCAGAAGGAGATTATAAAGTGCTTTTGTTCCTAAGCTTTATAAAGTGTGTGTGTATGCATGTGGGTTTC: -0.0392 ratio
ATCTTCCCCCTCTTCCTTGCCCCACCAGCTCACCTTCCCGGGTTATTTGCACAAAGGAAAATAAATAAAGCCGGCATTCGTTAACCCTCTTCACGCGCATACTGCTGTTTGCTCTGCATCTAACATGGTCCTTACGCGAGGCGTGGCTCCGGGAGAGCAAAGCACCGTGTCAGGCGCATGATCCGGGGTGGCC: 0.382 ratio
